Measured values pooled from the literature.
Parts stem from different laboratories: compare values within a part only.
Sequence of UniProt P10721 (whole entry, unmodified, looked up): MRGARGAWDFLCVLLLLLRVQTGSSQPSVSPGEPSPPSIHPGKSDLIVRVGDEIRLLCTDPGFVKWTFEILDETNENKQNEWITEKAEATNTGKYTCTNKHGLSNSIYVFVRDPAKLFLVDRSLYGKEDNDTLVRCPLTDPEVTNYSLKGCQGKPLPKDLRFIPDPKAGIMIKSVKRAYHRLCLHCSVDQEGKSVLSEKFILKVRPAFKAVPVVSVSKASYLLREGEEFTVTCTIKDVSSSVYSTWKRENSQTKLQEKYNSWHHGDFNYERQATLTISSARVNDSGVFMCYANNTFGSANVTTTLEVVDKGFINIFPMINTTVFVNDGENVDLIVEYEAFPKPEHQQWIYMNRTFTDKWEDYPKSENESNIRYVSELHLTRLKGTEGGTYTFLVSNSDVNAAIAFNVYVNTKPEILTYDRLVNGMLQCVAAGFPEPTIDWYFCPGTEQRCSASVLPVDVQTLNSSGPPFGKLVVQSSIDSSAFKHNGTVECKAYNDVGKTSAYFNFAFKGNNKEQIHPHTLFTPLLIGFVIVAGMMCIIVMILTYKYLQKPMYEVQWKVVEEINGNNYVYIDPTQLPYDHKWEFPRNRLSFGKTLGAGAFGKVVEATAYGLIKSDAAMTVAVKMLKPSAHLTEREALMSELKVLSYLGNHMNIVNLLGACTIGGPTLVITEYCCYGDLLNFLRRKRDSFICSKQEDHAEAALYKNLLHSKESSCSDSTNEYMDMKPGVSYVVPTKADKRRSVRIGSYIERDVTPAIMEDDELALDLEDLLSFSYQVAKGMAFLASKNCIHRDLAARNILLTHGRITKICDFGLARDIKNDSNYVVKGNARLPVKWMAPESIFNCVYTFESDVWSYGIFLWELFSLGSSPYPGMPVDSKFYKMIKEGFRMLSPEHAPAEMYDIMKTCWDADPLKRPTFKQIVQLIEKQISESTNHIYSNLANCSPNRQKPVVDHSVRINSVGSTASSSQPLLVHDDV
Sequence of UniProt Q56UN5 (whole entry, looked up): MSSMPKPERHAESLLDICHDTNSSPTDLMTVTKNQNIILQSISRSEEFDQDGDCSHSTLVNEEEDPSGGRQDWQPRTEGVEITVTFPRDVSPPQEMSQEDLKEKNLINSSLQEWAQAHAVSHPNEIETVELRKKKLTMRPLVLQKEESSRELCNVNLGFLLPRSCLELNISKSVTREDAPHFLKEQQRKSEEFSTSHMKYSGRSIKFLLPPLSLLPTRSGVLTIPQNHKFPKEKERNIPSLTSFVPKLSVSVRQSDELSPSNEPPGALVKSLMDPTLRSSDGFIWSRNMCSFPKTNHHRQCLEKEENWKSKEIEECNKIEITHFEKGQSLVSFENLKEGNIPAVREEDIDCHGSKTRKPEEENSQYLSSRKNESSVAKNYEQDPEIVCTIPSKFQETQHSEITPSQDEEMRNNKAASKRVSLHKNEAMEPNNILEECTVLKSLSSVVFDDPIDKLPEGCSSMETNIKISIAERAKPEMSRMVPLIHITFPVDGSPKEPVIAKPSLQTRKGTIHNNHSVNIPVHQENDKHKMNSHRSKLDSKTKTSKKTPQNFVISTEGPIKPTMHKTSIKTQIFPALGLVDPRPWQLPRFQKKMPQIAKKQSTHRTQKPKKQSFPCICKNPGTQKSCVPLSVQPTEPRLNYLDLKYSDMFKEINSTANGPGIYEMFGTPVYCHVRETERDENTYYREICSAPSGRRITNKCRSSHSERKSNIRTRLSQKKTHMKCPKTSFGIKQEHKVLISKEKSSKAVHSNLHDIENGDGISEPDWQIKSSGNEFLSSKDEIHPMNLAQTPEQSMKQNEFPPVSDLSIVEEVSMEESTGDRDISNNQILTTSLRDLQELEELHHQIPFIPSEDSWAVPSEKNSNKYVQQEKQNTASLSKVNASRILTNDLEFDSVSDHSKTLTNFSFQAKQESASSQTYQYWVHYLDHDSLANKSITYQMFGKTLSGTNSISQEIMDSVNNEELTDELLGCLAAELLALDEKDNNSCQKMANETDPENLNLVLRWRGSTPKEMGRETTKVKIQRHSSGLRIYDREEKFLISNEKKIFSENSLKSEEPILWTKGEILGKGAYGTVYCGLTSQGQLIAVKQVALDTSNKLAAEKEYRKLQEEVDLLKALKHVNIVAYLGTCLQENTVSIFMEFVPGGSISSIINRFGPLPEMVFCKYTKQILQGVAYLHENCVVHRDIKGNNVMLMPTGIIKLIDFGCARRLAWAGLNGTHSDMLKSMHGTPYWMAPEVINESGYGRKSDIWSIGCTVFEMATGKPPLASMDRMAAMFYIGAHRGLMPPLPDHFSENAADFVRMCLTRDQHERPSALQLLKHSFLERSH
Sequence of UniProt P43403 (whole entry, looked up): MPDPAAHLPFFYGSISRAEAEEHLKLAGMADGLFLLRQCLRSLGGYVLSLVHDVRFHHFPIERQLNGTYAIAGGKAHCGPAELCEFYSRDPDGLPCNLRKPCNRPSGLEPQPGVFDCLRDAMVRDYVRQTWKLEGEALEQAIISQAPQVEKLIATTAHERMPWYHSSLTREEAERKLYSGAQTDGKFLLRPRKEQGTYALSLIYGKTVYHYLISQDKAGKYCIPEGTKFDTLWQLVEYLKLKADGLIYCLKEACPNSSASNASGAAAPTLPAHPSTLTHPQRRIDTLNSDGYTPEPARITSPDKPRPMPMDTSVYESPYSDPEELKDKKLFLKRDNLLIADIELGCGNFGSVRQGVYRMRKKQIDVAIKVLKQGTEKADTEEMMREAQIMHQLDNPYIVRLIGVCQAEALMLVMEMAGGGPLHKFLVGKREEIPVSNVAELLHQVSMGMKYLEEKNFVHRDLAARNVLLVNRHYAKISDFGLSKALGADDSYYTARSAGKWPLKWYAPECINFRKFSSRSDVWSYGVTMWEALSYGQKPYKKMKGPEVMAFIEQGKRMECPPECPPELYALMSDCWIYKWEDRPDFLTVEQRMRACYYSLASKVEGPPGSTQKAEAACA
Sequence of UniProt O75747 (whole entry, looked up): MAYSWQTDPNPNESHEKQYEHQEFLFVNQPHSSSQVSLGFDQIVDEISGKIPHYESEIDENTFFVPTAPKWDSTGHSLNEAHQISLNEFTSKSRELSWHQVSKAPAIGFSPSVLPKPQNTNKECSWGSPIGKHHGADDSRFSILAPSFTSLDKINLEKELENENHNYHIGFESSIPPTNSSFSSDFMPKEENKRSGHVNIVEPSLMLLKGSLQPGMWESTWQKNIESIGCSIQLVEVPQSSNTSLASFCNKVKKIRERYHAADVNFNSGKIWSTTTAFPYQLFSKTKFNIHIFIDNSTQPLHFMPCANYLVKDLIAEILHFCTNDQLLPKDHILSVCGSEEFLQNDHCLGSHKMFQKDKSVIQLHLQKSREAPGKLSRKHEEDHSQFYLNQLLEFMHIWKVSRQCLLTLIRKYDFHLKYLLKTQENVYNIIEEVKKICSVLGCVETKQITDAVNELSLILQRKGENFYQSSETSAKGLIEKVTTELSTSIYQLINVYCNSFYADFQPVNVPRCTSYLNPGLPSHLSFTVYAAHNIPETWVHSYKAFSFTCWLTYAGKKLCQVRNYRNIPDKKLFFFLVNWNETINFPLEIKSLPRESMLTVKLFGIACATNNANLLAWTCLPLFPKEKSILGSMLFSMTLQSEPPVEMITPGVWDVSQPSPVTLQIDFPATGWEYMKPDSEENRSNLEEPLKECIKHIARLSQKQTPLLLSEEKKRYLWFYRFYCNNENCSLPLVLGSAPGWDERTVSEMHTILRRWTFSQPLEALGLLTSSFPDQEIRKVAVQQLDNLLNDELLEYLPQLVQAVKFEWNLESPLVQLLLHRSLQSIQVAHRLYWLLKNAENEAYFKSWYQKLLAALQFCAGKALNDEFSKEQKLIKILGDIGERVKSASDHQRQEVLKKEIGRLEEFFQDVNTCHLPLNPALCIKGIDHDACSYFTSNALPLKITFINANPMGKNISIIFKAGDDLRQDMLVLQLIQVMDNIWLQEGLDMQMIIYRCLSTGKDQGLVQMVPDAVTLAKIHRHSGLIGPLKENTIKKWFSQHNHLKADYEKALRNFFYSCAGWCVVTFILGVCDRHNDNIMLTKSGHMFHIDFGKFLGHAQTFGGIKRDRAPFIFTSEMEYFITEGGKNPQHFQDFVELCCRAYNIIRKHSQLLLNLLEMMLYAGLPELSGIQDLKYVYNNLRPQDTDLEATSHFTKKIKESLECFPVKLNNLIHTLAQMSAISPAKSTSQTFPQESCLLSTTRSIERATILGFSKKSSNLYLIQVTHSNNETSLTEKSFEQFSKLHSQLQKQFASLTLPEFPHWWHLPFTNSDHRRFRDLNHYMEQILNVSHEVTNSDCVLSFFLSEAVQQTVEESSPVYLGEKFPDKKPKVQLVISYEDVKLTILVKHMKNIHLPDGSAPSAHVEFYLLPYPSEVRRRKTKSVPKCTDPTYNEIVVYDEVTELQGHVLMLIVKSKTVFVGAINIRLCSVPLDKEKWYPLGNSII
Sequence of UniProt Q13188 (whole entry, looked up): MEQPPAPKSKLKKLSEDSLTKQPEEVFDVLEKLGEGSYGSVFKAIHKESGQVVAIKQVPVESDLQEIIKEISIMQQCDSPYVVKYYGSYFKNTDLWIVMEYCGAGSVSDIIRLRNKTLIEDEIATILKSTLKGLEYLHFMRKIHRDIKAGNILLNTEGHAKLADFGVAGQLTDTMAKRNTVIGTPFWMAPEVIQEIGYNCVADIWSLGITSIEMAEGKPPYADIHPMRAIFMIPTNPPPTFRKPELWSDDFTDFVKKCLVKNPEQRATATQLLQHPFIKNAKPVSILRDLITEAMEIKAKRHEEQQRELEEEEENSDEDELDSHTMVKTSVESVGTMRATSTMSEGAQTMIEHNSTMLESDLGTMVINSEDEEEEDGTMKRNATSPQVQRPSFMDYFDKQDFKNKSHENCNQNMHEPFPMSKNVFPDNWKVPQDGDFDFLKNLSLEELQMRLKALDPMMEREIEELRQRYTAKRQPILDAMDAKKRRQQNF

Series 1
Species: mouse
Matrix: microsomes or S9
Concentration: 2 µM
Time: 0.5 h
| SMILES | remaining compound |
| --- | --- |
| CCc1nc(-c2cccc(-c3noc(-c4sc(C)nc4C)n3)c2)cs1 | 57.4% |
| CON(C)C(=O)[C@H]1CCCN1C(=O)OC(C)(C)C | > 99% |
| Oc1c2ccc(-c3ccc[nH]3)nc2nn1-c1ccccc1 | 5.28% |
| COCCn1c(C(=O)OC)cc2c(=O)n(C)c(=O)n(C)c21 | 0.184% |
| CC(C)CCn1cc(C(=O)N2CCN(c3ccccn3)CC2)c2ccccc2c1=O | < 1% |
| c1ccc(-c2nnc3n2CCN(c2ccc4nccnc4n2)C3)cc1 | 99.1% |
| NCCN(C1CCOCC1)S(=O)(=O)c1ccc(F)cc1F | 72.4% |
| COc1ccccc1Nc1nc(N)nc(CN(C)Cc2ccco2)n1 | 1.98% |
| C[C@H](Nc1ccnc2c1NC(=O)CN2)c1cc2cccc(Cl)c2c(=O)n1-c1ccccc1 | 23.6% |

Series 2
Target: panel of 300 human kinases
Concentration: 0.5 µM
Direction: higher = more selective
| Structure (SMILES) | Gini score |
| --- | --- |
| O=C1NC(=O)/C(=C/c2ccc3nccnc3c2)S1 | 0.64 |
| Cc1ccc(S(=O)(=O)/C=C/C#N)cc1 | 0.69 |
| COc1cc2ncnc(Nc3ccc(OCc4ccccc4)cc3)c2cc1OC | 0.79 |
| N#Cc1cnc2cnc(NCc3cccnc3)cc2c1Nc1ccc(F)c(Cl)c1 | 0.61 |
| c1ccc(-c2n[nH]c3c2oc2ccccc23)cc1 | 0.64 |
| COc1ccc(COc2ccc(Cc3cnc(N)nc3N)cc2OC)cc1 | 0.75 |

Series 3
SMILES: Cc1sc(C(=O)NC2COC2)cc1-n1cc(NC(=O)Nc2c(F)cccc2Cl)cn1
Read-out: enzyme activity
Concentration: 10 µM
Baseline: untreated control
| target | remaining activity |
| --- | --- |
| MARK4 (Homo sapiens, UniProt Q96L34) | 108% |
| KSR2 (Homo sapiens, UniProt Q6VAB6) | 94.2% |
| MAP2K6 (Homo sapiens, UniProt P52564) | 85.4% |
| ULK3 (Homo sapiens, UniProt Q6PHR2) | 99.5% |
| KDR (Homo sapiens, UniProt P35968) | 87.5% |
| PKN3 (Homo sapiens, UniProt Q6P5Z2) | 97.9% |
| LIM domain kinase 1 (LIMK1, Homo sapiens, UniProt P53667) | 104% |
| Cyclin-dependent kinase 6, with cyclin D3 (CDK6, Homo sapiens, UniProt Q00534) | 93.5% |

Series 4
SMILES: Nc1c(C(=O)NCc2ccc(C(=O)NCCCC3CCCCC3)cc2)cnn1-c1ccccc1
Read-out: cell-free assay
Method: competition with immobilised ligand
Concentration: 0.1 µM
| target | remaining binding [%] |
| --- | --- |
| FLT3 (Homo sapiens, UniProt P36888, N841I) | 95 |
| NIM1K (Homo sapiens, UniProt Q8IY84) | 81 |
| STK3 (Homo sapiens, UniProt Q13188) | 100 |
| SGK3 (Homo sapiens, UniProt Q96BR1) | 90 |
| NTRK2 (Homo sapiens, UniProt Q16620) | 85 |
| MAP3K19 (Homo sapiens, UniProt Q56UN5) | 77 |
| ZAP70 (Homo sapiens, UniProt P43403) | 100 |
| EPHA6 (Homo sapiens, UniProt Q9UF33) | 94 |
| ROCK1 (Homo sapiens, UniProt Q13464) | 100 |
| KIT (Homo sapiens, UniProt P10721, V559D/V654A) | 100 |
| CDK5 (Homo sapiens, UniProt Q00535) | 100 |
| KIT (Homo sapiens, UniProt P10721, T670I/V559D) | 98 |
| TAOK3 (Homo sapiens, UniProt Q9H2K8) | 96 |
| PIK3C2G (Homo sapiens, UniProt O75747) | 100 |
| Tyrosine-protein kinase ABL1, phosphorylated (ABL1, Homo sapiens, UniProt P00519, M351T) | 86 |
| MST1R (Homo sapiens, UniProt Q04912) | 100 |

Some of these lines once more (series 1):
| SMILES | remaining compound |
| --- | --- |
| COCCn1c(C(=O)OC)cc2c(=O)n(C)c(=O)n(C)c21 | 0.184% |
| CC(C)CCn1cc(C(=O)N2CCN(c3ccccn3)CC2)c2ccccc2c1=O | < 1% |
| c1ccc(-c2nnc3n2CCN(c2ccc4nccnc4n2)C3)cc1 | 99.1% |
| NCCN(C1CCOCC1)S(=O)(=O)c1ccc(F)cc1F | 72.4% |
